Assay results gathered from unrelated publications.
Parts stem from different laboratories: compare values within a part only. Substitutions count along the parent as printed.

Sample 1
Target: Histone acetyltransferase KAT6A, both winged helices, GST fusion (KAT6A, Homo sapiens, UniProt Q92794, residues 1-181)
Method: protein binding microarray
Molecule type: double-stranded DNA, one strand shown
Medium: in vitro
Concentration: not given
Notes: 8-mer, flanks averaged, mean of 2 arrays, mostly near background
Reference: not given
Reading: higher = stronger binding
Endpoint: E-score
Construct (chain): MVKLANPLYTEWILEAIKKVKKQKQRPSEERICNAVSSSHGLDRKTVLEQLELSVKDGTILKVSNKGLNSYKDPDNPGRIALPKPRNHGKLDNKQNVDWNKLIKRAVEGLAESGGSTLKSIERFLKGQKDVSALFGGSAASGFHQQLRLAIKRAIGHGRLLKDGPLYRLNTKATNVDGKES
CTAATCTA: -0.105
AACGTTGG: 0.0041
ATGACTTA: -0.122

Sample 2
Target: Prothrombin, mature alpha-thrombin (F2, Homo sapiens, UniProt P00734)
Method: aptamer microarray, sandwich
Molecule type: DNA with 2'F-ANA
Medium: in vitro
Concentration: 200 nM
Notes: whole 15-mer aptamer, many near background
With: Cy3 exosite-II aptamer, 400 nM
Reading: higher = stronger binding
Endpoint: mean fluorescence intensity
Strand: GGTTGGTGTGGTTGG
2'F-ANA at 5 6 8 9 10 14 15: 46.9 a.u.
2'F-ANA at 1 2 3 4 5 7 10 11 12 14 15: 48 a.u.
2'F-ANA at 1 2 5 6 8 9 10 12 15: 50.4 a.u.
2'F-ANA at 1 2 3 4 8 14 15: 72.9 a.u.
2'F-ANA at 3 5 6 8 13: 94.3 a.u.
2'F-ANA at 3 4 7 8 10 12 14 15: 212 a.u.

Sample 3
Target: CCNA1, cyclin fold, Cln2 fusion (human)
Method: yeast growth competition, sequencing
Medium: yeast
Notes: weak parent motif
Reference: not given
Reading: higher = stronger binding
Endpoint: normalised enrichment score
Starting sequence: INSM1 docking peptide (human); PKAIRKLHFEDEV
K6M: 0.364
L7S: 0.32
A3D: -0.409
R5V: -0.0884

Further values, each from its own experiment
PhoQ, residues 284 288 289 292 302 303 WVSSAF
fold induction (PhoP, residues 12 14 15 18 19 LWHVM (Escherichia coli, UniProt P23836); Sort-seq, refers to: YFP reporter; E. coli; PhoQ-PhoP variant library, with: 10 µM Mg2+; reference: high Mg2+ state, higher = stronger signaling): 4.89
